Published values gathered from unrelated publications.
Every numbered part comes from another study and shows a few of its results, in no order. Changes are numbered by the printed parent chain.

Set 1
Target: CREB3L1, bZIP domain (human)
Technique: DHFR protein complementation
Medium: yeast
Notes: single substitutions, most at no-binding floor
Baseline: wild-type JUN-FOS pair
Reading: higher = stronger binding
Starting sequence: JUN, bZIP domain (human); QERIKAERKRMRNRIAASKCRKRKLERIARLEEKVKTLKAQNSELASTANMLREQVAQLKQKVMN; partner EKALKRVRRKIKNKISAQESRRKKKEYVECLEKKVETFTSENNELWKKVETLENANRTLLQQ
| Variant | binding fitness [natural log] |
| --- | --- |
| R53G | -1.49 |
| S47E | -1.08 |
| K36D | -1.48 |
| S47W | -1.43 |
| V56S | -1.49 |
| R30K | -1.41 |
| E32G | -1.49 |
| L38V | -1.33 |
| N42V | -1.46 |
| E32A | -1.38 |
| A40N | -1.45 |
| V56N | -1.33 |
| E32Y | -1.48 |
| N42H | -1.51 |
| A46M | -1.49 |
| A49F | -1.51 |
| A57T | -1.32 |

Set 2
Target: TAR DNA-binding protein 43, full length, His tag (TARDBP, Homo sapiens, UniProt Q13148, residues 1-414)
Technique: RNA Bind-n-Seq
Molecule type: RNA
Medium: in vitro
Tested at: 20 nM
Notes: 6-mer, flanks averaged, single round
Added: 150 mM KCl
Baseline: input library
Reading: higher = stronger binding
| Oligonucleotide | 6-mer enrichment (R) |
| --- | --- |
| GCUCAG | 0.898 |
| CCCAUA | 0.623 |
| GUUUAU | 0.677 |
| CGGCAA | 0.924 |
| CUUAAC | 0.562 |
| GGAGUG | 3.47 |
| AAACAA | 0.749 |
| GAGCCC | 0.81 |
| CGAAAC | 0.617 |
| GGCGAU | 1.5 |
| UUUGUU | 0.737 |
| GUCGAG | 1.49 |
| GGGAGU | 3.54 |
| GAGAAA | 0.994 |

Set 3
Target: Histone acetyltransferase KAT6A, winged helix 2, GST fusion (KAT6A, Homo sapiens, UniProt Q92794, residues 85-181)
Technique: protein binding microarray
Molecule type: double-stranded DNA, one strand shown
Medium: in vitro
Tested at: not given
Notes: 8-mer, flanks averaged, mean of 2 arrays, mostly near background
Baseline: not given
Reading: higher = stronger binding
Construct (chain): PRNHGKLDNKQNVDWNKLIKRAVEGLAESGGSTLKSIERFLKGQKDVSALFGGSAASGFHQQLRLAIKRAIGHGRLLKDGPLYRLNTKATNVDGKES
| Oligonucleotide | E-score |
| --- | --- |
| ACGCAACC | 0.0422 |
| GAACCTAA | -0.0173 |
| GCGGGTAA | -0.024 |
| AGCGGTAA | -0.0733 |
| AGTAGGGC | 0.0279 |
| CGATTAGC | -0.0632 |
| GGTCCCTA | -0.137 |
| GTGGTACA | -0.0976 |
| AGTCGTTC | -0.0631 |
| AGATAGGG | -0.155 |
| CTCAAAGA | -0.0698 |
| CTAAACAA | -0.157 |
| CAGCCCTA | -0.0527 |
| ACAACAAG | -0.0821 |
| CAGTTCAG | -0.134 |
| CTTGGATC | -0.0393 |
| AGGTGGCC | -0.028 |
| AAGTGCCC | -0.0207 |
| TAAAACGA | 0.0485 |
| ACGTTGAG | -0.232 |
| AAGGAAAT | -0.0765 |
| GCGCTGAC | -0.0822 |
| AGCAGCCA | 0.0254 |
| ATCGCAGA | -0.0274 |
| AAGCTAAC | -0.0753 |

Set 4
Target: ABI1, truncated, D143A, DHFR fusion (Arabidopsis thaliana)
Technique: DHFR PCA, deep sequencing
Medium: yeast
Notes: methotrexate growth selection, single substitutions
Added: (+)-ABA 0.39 µM
Baseline: wild-type fitted maximum
Reading: higher = stronger binding
Starting sequence: PYL1, truncated, DHFR fusion (Arabidopsis thaliana); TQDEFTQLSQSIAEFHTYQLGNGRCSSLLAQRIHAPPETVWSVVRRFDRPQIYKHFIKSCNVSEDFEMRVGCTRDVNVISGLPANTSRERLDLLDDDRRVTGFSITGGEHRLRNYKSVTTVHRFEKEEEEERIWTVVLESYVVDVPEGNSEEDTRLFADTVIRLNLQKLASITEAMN; partner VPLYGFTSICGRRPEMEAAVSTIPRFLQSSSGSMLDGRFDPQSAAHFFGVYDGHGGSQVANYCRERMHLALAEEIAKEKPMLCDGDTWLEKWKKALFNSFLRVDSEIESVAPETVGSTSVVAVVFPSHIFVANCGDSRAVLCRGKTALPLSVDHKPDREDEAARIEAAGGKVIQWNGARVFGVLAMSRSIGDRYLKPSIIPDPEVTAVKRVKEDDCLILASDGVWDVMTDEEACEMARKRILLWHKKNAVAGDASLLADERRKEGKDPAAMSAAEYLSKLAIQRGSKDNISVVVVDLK
| Variant | relative binding score [%] |
| --- | --- |
| V142K | -13.3 |
| T101C | 26.1 |
| S80D | -5.74 |
| R163S | 31.7 |
| G23W | -5.77 |
| K168E | -9.59 |
| G108Y | -1.85 |
| A13E | 52.5 |
| L112D | -5.47 |
| S87L | 31.4 |
| G108S | -4.92 |
| T86P | -2.49 |
| D96C | -9.21 |

Set 5
Target: RNA binding protein fox-1 homolog 2, RRM domain, GST-SBP tag (RBFOX2, Homo sapiens, UniProt O43251-10, residues 100-194)
Technique: RNA Bind-n-Seq
Molecule type: RNA
Medium: in vitro
Tested at: 365 nM
Notes: natural RNA segment, single round, ends assumed
Baseline: no-protein control
Reading: higher = stronger binding
Shared flanks, not repeated: GGGAGUUCUACAGUCCGACGAUC … UGGAAUUCUCGGGUGCCAA
Residues (chain): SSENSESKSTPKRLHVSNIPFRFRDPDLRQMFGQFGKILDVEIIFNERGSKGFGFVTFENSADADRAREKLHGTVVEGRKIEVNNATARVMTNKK
| Oligonucleotide | RBNS enrichment (R) |
| --- | --- |
| GACAUACUGUUAUUUCUUCUGGGAUUUAUUCUUGGCUGUAAACCCAGAACUAAAUUACAUAGAUGAAUACUCCUGCUCCAGUGGCCUGGAUACCAAUCUCUCCUGUCUUU | 0.656 |
| AUCCGAGGUGCUGCCGGGGCAGCGGGAGGUGGCUGGACCCAUCGCAUCUAAAACUGGCCCAGGACACUUGGUGUAUGCGUGACUUGGCUGUGGCUGUCUUUUUUAAUCCU | 5.05 |
| UCGAGCCCUUGGUGGGGACAGCUGGGGAGAUGGCAGUGCAGGCUGGAACCUGGGCUGCCCCAGAACACAGUCCAUUACGAUAGAAACACUAAUUGAGCAUGUGCGUGGGG | 2.71 |
| GCUUGAAGAGACCCCCUCCCCCUUCCAACGAGCUUCCGGACUUGUCUGCACCCCCAGCAAGAAGGCGAGUUAGUUUUCUAGAGACUUGAAGGAGUCUCCCCCUUCCUGCA | 0.705 |
| CGCCCUGCCCGAGCAGCGUUCCUUUGGAGGGAGGCUGCAGAUCAUCCAGGGCUGCCCCUUCCGUUAUCCACCUCAUGAAUCACUGGCUGCAAUAAACAUCGAAGCACAGG | 0.419 |
| CAAGUUUGCAGAAAGUGUCUCAGAUCGCGUUUCUGAUUGAGUGAUCCGAGCUGGACUCCUCCUGUAGGGUGGACAGACUGUAUAUUGAUAAUUCCUUCUAUGCGCAGUUU | 0.646 |
| CUUUAUAUGCAUUUUUAGAAUAAUUUGAGAGAUUAAAUGCUGCUUGAAACUAUUAUACUUUGAGUUUUAGAUUGGCCAAAUACAUUAAUGUAGUUAAAUUCAUCUUUAAA | 1.12 |
| AUCACUAUAUUUAUUCAAGCUGUGAUUGUUUUCUUUCUCACUCAAAAAAGAAUUUUGUAUGUUGUGGCAUUUAAUCAUUUCAUGUUCAGUAACAAAUGAUAUUUUUGUUA | 1.31 |
| CUUAGUAAGACUCUGGUUCACACCGUGAGUGUCGCGGUCAUUGAUGGGACCAGGGCAGUCACCAGUGCCGAAGAGCGGUCCCCUUCGUGGAUAUCUGCUUCCAUGACAGA | 0.341 |
| CUGCUUUCAGGAAGAUACAAAGAAACCACAUGAACUAGACCAGCAUCUGUGAACAUUGUGCUAUGUUCCACCUUGUUUGAAAACUGUGAAACAGUGUGGCAUGCCAACAU | 1.09 |
| CUCAAGUAUUCUAGAAUCUGCUGGGACAUUGGGCUGUUUCUCAACUUAUGUGUCUACUUGGAGAGAAAAGAAUGUCUUUGAACAAAAUGGCUAACUUUCACAAAACUGUC | 0.564 |
| CUGAGAUAAGCUUAGCACUUGAGUUGUACAACAGAACACUUGUACAAAAUAGAUUUUAAGGCUAACUUCUUUUCACUGUUGUGCUCCUUUGCAAAAUGUAUGUUACAAUA | 3.45 |

Set 6
Target: CCND3, cyclin fold, Cln2 fusion (human)
Technique: yeast growth competition, sequencing
Medium: yeast
Notes: weak parent motif
Baseline: not given
Reading: higher = stronger binding
Starting sequence: RBL2 docking peptide (human); STTRRRLFVENDS
| Variant | normalised enrichment score |
| --- | --- |
| R5I | 0.0946 |
| V9A | 0.128 |
| D12V | 0.106 |
| F8G | 0.0895 |
| R4K | 0.12 |
| R5A | -0.00239 |
| E10F | 0.16 |
| R5C | 0.1 |
| S1T | -0.0196 |
| T2E | 0.127 |
| E10I | 0.0117 |
| V9M | 0.137 |
| E10Y | 0.022 |
| T3P | 0.0358 |
| V9H | 0.211 |
| R6M | 0.101 |
| D12C | 0.066 |
| R6D | 0.139 |

Other studies, line by line
| Substance | target | assay | system | setting | scale | quantity | value |
| --- | --- | --- | --- | --- | --- | --- | --- |
| PhoQ, residues 284 288 289 292 302 303 SQSLSM | PhoP, residues 12 14 15 18 19 NMSSL (Escherichia coli, UniProt P23836) | Sort-seq, measured: YFP reporter | E. coli | PhoQ-PhoP variant library, added: 10 µM Mg2+ | baseline: high Mg2+ state, higher = stronger signaling | fold induction | 21.2 |

For quick reference, copied from above (set 4):
| Variant | relative binding score [%] |
| --- | --- |
| V142K | -13.3 |
| T101C | 26.1 |
| S80D | -5.74 |
| R163S | 31.7 |
| G23W | -5.77 |
| K168E | -9.59 |
| G108Y | -1.85 |
| A13E | 52.5 |
| L112D | -5.47 |
| S87L | 31.4 |
| G108S | -4.92 |
| T86P | -2.49 |
| D96C | -9.21 |
